# Experimental data gathered from unrelated publications.
# Every numbered part comes from another study and shows a few of its results, in no order.

# Block 1
# Target: Centromere-binding protein 1, full length, His-tagged (CBF1, Saccharomyces cerevisiae, UniProt P17106, residues 1-351)
# Sequence of UniProt P17106 (whole entry, looked up): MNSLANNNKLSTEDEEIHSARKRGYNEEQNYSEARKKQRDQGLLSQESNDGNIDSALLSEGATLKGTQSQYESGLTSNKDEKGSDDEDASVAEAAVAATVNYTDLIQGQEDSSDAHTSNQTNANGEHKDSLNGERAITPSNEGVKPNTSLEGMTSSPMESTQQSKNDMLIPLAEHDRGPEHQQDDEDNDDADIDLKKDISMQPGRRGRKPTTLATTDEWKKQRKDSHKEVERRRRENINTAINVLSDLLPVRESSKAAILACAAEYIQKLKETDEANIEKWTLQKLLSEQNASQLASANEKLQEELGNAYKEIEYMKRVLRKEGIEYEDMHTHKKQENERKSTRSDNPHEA
# Method: competition protein-binding microarray
# Molecule type: double-stranded DNA, one strand shown
# Sample: in vitro
# Concentration: 2 µM
# Setting: whole 60-bp probe, lowest competitor level
# Together with: Pho4 competitor, 0.05 µM
# Direction: higher = stronger binding
Strand,fluorescence intensity [a.u.]
CATACCCAACCTTTGCACGTGTTTTAAGATATTTGTGTCTTGATTCGCTTGACGCTGCTG,2530
TAAAGTGCCCGCCATCACGTCACTTCTTCCTACAGAGTCTTGATTCGCTTGACGCTGCTG,77.1
CTTCTGTAAATTTGTGATGTGGGTGGACGCGCCCCGGTCTTGATTCGCTTGACGCTGCTG,68.4

# Block 2
# Target: Histone acetyltransferase KAT6A, winged helix 2, GST fusion (KAT6A, Homo sapiens, UniProt Q92794, residues 85-181)
# Method: protein binding microarray
# Molecule type: double-stranded DNA, one strand shown
# Sample: in vitro
# Concentration: not given
# Setting: 8-mer, flanks averaged, mean of 2 arrays, mostly near background
# Reference: not given
# Direction: higher = stronger binding
# Target sequence (chain): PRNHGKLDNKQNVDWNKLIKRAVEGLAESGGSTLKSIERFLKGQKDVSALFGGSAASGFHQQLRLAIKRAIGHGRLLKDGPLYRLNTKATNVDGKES
Strand,E-score
AAGGCTGT,-0.161
AGCTCCGC,0.232
CGGCCCTA,0.0467
ATCCTATA,-0.084

# Further values, each from its own experiment
# IRF7 S101K/S471D/S472D/S475D/S476D/S477D/S483D/S484D/S487D full length, phosphomimetic: Interferon regulatory factor 7, full length, phosphomimetic (IRF7, Homo sapiens, UniProt Q92985, residues 1-503, S101K/S471D/S472D/S475D/S476D/S477D/S483D/S484D/S487D)
# Sequence of UniProt Q92985 (whole entry, unmodified, looked up): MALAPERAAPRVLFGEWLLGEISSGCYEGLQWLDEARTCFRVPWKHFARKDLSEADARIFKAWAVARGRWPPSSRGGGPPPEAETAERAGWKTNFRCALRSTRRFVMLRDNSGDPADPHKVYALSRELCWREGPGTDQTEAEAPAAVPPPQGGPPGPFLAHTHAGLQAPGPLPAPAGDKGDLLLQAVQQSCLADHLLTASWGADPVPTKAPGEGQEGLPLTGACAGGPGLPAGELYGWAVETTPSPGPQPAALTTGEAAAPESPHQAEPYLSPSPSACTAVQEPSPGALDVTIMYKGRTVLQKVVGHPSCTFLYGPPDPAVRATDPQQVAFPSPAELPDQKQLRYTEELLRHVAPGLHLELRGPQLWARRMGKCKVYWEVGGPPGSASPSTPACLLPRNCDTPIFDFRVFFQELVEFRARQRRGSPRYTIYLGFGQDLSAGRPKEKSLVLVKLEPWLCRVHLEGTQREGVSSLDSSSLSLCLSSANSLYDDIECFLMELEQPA
Molecule,target,assay,test system,conditions,scale,measurement,value
GCCTAGCACTTAGGTATCGACTAACGGTTAGTGCTAGTCTTGATTCGCTTGACGCTGCTG,"IRF7 S101K/S471D/S472D/S475D/S476D/S477D/S483D/S484D/S487D full length, phosphomimetic",protein-binding microarray,"double-stranded DNA, one strand shown, in vitro","250 nM, 60-bp whole probe, together with: salmon DNA 0.4 mg/ml","reference: random background probes, higher = stronger binding",log fluorescence,0.362 z-score
"PhoQ, residues 284 288 289 292 302 303 SSCCRF","PhoP, residues 12 14 15 18 19 QYCSL (Escherichia coli, UniProt P23836)","Sort-seq, measured: YFP reporter",E. coli,"PhoQ-PhoP variant library, together with: 10 µM Mg2+","reference: high Mg2+ state, higher = stronger signaling",fold induction,12.1
GCCTAGCACGACGATTTCGGGTATCGATACGTGCTAGTCTTGATTCGCTTGACGCTGCTG,"IRF7 S101K/S471D/S472D/S475D/S476D/S477D/S483D/S484D/S487D full length, phosphomimetic",protein-binding microarray,"double-stranded DNA, one strand shown, in vitro","250 nM, 60-bp whole probe, together with: salmon DNA 0.4 mg/ml","reference: random background probes, higher = stronger binding",log fluorescence,1.25 z-score

# Repeated from above (further values, each from its own experiment):
Molecule,target,assay,test system,conditions,scale,measurement,value
"PhoQ, residues 284 288 289 292 302 303 SSCCRF","PhoP, residues 12 14 15 18 19 QYCSL (Escherichia coli, UniProt P23836)","Sort-seq, measured: YFP reporter",E. coli,"PhoQ-PhoP variant library, together with: 10 µM Mg2+","reference: high Mg2+ state, higher = stronger signaling",fold induction,12.1
